Measurements of several laboratories.
Lines come from different studies, so protocols differ. Several values in a cell are separate wells, animals, samples, runs or records. ± marks the error that the study gave.
uncharacterized protein: uncharacterized protein (Spodoptera exigua, UniProt F1CEY0)
Sequence of UniProt P51575 (whole entry, unmodified, looked up): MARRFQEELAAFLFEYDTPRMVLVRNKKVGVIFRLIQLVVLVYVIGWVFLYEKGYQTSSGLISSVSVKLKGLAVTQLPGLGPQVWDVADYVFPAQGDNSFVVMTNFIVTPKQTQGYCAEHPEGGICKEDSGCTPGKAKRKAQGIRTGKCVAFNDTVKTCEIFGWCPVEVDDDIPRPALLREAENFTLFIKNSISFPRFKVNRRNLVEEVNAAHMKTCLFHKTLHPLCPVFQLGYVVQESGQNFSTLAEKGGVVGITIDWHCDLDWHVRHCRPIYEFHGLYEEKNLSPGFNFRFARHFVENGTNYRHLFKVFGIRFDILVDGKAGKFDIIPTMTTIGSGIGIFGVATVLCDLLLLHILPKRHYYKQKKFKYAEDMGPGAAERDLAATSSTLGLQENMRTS
Sequence of UniProt P11388 (whole entry, looked up): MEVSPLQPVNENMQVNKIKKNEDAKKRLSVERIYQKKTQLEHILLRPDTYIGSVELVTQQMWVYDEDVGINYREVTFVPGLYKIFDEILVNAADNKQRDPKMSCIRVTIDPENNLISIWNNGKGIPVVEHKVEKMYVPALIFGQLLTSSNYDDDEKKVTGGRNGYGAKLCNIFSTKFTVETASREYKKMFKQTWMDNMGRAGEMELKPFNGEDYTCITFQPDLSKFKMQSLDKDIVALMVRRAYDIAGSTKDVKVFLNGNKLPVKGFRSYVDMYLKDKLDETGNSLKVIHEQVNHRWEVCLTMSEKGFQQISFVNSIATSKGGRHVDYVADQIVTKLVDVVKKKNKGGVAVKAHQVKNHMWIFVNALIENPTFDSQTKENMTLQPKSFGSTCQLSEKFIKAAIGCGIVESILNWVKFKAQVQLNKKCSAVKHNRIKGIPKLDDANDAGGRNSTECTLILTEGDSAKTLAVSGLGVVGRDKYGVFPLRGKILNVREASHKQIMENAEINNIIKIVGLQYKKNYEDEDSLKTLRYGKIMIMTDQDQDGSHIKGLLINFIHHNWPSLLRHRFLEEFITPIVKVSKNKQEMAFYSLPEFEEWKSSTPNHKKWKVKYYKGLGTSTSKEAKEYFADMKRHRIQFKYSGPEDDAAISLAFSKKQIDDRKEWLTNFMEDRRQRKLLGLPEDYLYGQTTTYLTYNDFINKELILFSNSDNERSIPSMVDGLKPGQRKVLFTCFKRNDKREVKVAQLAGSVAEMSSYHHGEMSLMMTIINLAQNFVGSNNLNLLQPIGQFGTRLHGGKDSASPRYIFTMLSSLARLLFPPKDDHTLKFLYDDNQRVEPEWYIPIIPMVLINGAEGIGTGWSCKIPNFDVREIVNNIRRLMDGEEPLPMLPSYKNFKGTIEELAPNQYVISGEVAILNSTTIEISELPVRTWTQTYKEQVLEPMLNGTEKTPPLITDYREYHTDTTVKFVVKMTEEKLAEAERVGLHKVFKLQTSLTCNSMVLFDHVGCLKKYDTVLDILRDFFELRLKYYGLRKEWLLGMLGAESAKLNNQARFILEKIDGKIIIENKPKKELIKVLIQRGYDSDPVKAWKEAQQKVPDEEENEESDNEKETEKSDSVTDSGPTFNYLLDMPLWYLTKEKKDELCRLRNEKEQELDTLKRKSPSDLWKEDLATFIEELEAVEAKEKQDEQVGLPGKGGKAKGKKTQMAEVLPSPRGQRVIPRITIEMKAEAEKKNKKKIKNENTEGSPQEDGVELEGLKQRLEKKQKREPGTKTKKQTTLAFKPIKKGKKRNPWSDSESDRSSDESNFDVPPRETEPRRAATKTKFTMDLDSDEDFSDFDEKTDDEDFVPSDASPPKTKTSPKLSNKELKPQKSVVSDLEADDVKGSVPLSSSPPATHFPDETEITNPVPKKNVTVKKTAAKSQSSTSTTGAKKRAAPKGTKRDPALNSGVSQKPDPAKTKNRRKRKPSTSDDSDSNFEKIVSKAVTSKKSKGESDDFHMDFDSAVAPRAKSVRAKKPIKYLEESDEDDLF
Sequence of UniProt P00441 (whole entry, unmodified, looked up): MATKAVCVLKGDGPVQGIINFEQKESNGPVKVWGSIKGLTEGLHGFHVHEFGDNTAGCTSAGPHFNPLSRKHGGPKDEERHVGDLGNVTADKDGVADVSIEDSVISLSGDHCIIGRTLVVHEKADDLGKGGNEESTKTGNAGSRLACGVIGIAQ
Sequence of UniProt P52790 (whole entry, unmodified, looked up): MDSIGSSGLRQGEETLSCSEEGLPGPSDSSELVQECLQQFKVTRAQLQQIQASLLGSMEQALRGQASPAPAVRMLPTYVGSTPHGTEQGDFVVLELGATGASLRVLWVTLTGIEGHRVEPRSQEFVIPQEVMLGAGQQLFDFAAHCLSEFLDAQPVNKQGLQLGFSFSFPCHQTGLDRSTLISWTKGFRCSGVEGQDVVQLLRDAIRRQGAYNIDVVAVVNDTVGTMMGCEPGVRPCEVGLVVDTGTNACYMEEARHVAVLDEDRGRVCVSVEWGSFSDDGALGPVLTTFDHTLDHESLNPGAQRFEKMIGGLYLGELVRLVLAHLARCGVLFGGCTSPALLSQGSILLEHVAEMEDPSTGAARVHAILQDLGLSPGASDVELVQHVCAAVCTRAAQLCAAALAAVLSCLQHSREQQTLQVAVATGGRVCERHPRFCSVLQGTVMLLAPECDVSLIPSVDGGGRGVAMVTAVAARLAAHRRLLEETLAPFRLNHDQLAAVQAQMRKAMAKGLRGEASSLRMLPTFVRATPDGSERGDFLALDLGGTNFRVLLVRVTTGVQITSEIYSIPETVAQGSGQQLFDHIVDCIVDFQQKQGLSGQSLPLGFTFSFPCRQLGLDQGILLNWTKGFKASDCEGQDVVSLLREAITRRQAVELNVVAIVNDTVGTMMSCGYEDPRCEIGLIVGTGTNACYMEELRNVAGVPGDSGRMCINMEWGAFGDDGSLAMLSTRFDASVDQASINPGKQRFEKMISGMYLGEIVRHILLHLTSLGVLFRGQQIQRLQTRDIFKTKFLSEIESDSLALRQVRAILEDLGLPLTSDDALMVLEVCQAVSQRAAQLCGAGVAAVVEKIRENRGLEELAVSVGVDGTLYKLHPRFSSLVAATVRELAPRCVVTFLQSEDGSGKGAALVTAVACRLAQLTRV
Sequence of UniProt Q99759 (whole entry, looked up): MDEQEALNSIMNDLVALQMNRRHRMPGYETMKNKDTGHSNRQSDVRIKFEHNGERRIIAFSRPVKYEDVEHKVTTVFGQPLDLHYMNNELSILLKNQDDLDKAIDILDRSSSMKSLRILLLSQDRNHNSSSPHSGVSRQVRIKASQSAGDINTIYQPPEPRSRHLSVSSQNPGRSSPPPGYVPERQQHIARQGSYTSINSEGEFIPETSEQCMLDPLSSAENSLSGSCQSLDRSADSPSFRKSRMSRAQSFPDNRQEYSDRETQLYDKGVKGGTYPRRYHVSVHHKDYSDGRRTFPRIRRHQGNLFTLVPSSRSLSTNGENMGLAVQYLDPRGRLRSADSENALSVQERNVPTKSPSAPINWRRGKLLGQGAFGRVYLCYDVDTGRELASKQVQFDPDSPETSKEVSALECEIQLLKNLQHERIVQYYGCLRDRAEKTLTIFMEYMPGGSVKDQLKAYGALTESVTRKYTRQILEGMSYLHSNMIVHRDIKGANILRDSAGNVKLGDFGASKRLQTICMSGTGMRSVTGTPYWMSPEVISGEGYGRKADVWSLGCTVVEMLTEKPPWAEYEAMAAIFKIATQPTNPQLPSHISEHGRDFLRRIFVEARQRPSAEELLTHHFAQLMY
Sequence of UniProt P29317 (whole entry, looked up): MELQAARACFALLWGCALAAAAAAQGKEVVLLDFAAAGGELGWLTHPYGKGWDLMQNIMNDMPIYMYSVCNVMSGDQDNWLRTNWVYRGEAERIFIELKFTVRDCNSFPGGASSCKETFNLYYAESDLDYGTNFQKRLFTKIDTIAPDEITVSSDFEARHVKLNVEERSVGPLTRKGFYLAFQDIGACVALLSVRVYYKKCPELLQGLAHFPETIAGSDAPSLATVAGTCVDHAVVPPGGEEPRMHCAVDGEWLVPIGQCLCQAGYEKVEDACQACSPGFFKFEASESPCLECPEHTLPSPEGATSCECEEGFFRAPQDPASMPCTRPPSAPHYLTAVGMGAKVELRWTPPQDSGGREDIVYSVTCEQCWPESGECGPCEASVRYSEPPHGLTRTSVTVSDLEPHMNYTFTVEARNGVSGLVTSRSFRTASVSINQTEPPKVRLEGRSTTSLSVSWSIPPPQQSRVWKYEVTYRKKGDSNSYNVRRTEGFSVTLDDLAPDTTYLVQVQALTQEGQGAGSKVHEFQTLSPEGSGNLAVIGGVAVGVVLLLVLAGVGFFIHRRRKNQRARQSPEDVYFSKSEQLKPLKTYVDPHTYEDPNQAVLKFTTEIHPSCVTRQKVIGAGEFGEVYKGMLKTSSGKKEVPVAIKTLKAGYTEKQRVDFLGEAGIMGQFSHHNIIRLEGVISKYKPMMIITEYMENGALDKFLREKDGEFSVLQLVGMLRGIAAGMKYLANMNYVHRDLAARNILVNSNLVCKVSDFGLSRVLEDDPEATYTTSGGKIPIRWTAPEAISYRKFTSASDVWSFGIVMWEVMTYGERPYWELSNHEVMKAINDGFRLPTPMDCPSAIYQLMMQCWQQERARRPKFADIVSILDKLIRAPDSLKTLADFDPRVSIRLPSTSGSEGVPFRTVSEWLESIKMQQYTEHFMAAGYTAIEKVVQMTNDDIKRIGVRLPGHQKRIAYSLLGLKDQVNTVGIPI
Sequence of UniProt P25021 (whole entry, looked up): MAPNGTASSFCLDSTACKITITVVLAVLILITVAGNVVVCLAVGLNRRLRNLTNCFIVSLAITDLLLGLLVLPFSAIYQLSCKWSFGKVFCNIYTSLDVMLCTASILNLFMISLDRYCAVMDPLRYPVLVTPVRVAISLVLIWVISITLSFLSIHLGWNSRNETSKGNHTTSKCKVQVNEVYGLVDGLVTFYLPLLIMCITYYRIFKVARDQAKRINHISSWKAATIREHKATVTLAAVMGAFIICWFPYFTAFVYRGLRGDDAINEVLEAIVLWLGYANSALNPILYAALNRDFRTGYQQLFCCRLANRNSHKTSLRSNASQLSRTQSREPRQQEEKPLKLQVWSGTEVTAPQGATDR

target	assay	test system	conditions	how to read	endpoint	result	SMILES
EPHA2 (Homo sapiens, UniProt P29317)			0.1 µM		remaining activity	128%	C=CC(=O)N1CCC[C@@H](n2nc(-c3ccc(Oc4ccccc4)cc3)c3c(N)ncnc32)C1
GTPase KRas, GppNHp-bound (KRAS, Homo sapiens, UniProt P01116)	SPR		GDP-bound	reference: mutant KD over wild-type KD	affinity loss vs wild type	20 fold	C#Cc1c(F)ccc2cc(O)cc(-c3ncc4c(N5CC6CCC(C5)N6)nc(OC[C@@]56CCCN5C[C@H](F)C6)nc4c3F)c12
Albumin (ALB, Homo sapiens, UniProt P02768)	binding, van't Hoff fluorescence quenching		concentration not given		entropy change	107 J/(mol K)	Cc1occc(=O)c1[O-].[Cl-].[W+4].c1cc[cH-]c1.c1cc[cH-]c1
HRH2 (Homo sapiens, UniProt P25021)	radioligand binding, radioligand displacement		10 µM		inhibition	-9.17%	O=C(NO)c1ccc(CN2CCCCc3ccccc32)c(F)c1
P2X purinoceptor 1 (P2RX1, Homo sapiens, UniProt P51575, M214A)	saturation binding	HEK293	52 nM		specific binding	1270 CCPM and 592 CCPM and 773 CCPM	Nc1ncnc2c1ncn2[C@@H]1O[C@H](COP(=O)(O)CP(=O)(O)OP(=O)(O)O)[C@@H](O)[C@H]1O
Hexokinase-3 (HK3, Homo sapiens, UniProt P52790, E254A)	substrate		mutant E254A, with: glucose 0.5 mM		Km	1800 ± 100 µM	Nc1ncnc2c1ncn2[C@@H]1O[C@H](COP(=O)(O)OP(=O)(O)OP(=O)(O)O)[C@@H](O)[C@H]1O
SOD1 (Homo sapiens, UniProt P00441, G94A)	intact protein LC-MS	SOD1 G93A transgenic mice, whole blood	intravenous, 10 mg/kg, 168 h		target engagement	4.52% and 6%	[O-][S+]1CCCCS1 (stereo not drawn)
CKMT1A (Homo sapiens, UniProt P12532, H99K)	substrate, Kinase-Glo luminescence		pH 7.0, reverse reaction, H61K mutant, with: second substrate in excess		Km	29 ± 3 µM	Nc1ncnc2c1ncn2[C@@H]1O[C@H](COP(=O)(O)OP(=O)(O)O)[C@@H](O)[C@H]1O
SNRK (Homo sapiens, UniProt Q9NRH2)	ATP-site probe binding, ActivX profiling	THP-1 cell lysate	0.04 mM, Lys2 site		inhibition	1.9%	CC[C@@H]1[C@H](F)C(=O)N[C@@H]1COc1nccc2cc(C(N)=O)c(OC)cc12
uncharacterized protein	binding, competitor, fluorescence displacement		20 µM, pH 7.4, with: 1-NPN 20 µM	reference: 1-NPN alone	relative fluorescence	78.9%	CCCCC(C)=O
Glutamate receptor ionotropic, NMDA 1, with GluN2C (Grin1, Rattus norvegicus, UniProt P35439, Y692L)	receptor activation	rat	with: glutamate 300 µM		log EC50	-1.09 µM	N[C@H](CNC(=O)c1cc(Br)c(-c2ccccc2F)s1)C(=O)O
TOP2A (Homo sapiens, UniProt P11388)	ATPase activity		3.9 µM, with: ATP 0.25 mM		ATP hydrolysis rate	1.38 µM/min and 1.3 µM/min	O=c1nc(SCc2cc(F)cc(C(F)(F)F)c2)nc(SCc2ccc3sccc3c2)[nH]1
MAP3K3 (Homo sapiens, UniProt Q99759)	kinase activity, inhibitor, HotSpot radiometric		1000 nM, with: ATP at Km		remaining activity	82.2 ± 2.5%	COc1ccc(F)cc1C(=O)NCc1ccc(-c2nn([C@@H](C)C(F)(F)F)c(N)c2C(N)=O)cc1
GUK1 (Homo sapiens, UniProt Q16774, R148A)	binding, ITC		with: GMP		-TΔS	2.03 kcal/mol	Nc1ncnc2c1ncn2[C@@H]1O[C@H](CO[P@](=O)(O)O[P@](=O)(O)O[P@@](=O)(O)S)[C@@H](O)[C@H]1O
uncharacterized protein	binding, competitor, fluorescence displacement		20 µM, pH 7.4, with: 1-NPN 20 µM	reference: 1-NPN alone	relative fluorescence	68.3%	CCCCCCCCCCCC
